Published values gathered from unrelated publications.
Numbers after ± are the reported error.

Compound	assay	test system	conditions	half-life [h]
O[C@H]1CCCN[C@@H]1CCCn1cnc2c(Cl)c(Cl)ccc21	–	healthy human volunteers, plasma	oral, 50 mg, day 1, multiple ascending dose	2.95
Cc1ncc(OC[C@@]2(c3cccc(F)c3)C[C@H]2C(=O)Nc2ccc(F)cn2)c(C)n1	–	human, plasma	10 mg, mean, together with: rifampin 600 mg	10.8
O=c1[nH]c(Cc2ccccn2)nc2c1cnn2C1CCOCC1	–	healthy male human, plasma	oral, 100 mg, geometric mean	2.68
CC[C@@]1(O)C(=O)OCc2c1cc1n(c2=O)Cc2cc3c(CN(C)C)c(O)ccc3nc2-1	–	human patients	oral, 2.5 mg daily, 5 days, cycle 2 day 5, geometric mean, together with: pazopanib 800 mg daily	3.77
Oc1ccc2ccc3c4ccccc4cc4ccc1c2c43	UPLC-AMS	human, plasma	oral, 50 ng of [14C]-BaP	2.28 ± 0.51
CN[C@@H]1C[C@H]2O[C@@](C)([C@@H]1OC)n1c3ccccc3c3c4c(c5c6ccccc6n2c5c31)C(=O)N[C@@H]4O	–	human patients	intravenous infusion, 17 mg/m^2/24 h, 72 h infusion, cycle 1, mean, together with: prednisone	314
Oc1ccc2cc3ccc4cccc5ccc(c2c1)c3c45	UPLC-AMS	human, plasma	oral, 100 ng of [14C]-BaP	67.6 ± 167
COc1ccc(C[C@@H]2NC(=O)[C@H]([C@@H](C)O)NC(=O)[C@@H]3[C@@H]4CCN3C(=O)[C@@H]3Cc5cn(c6ccc(F)cc56)CCCCCCN(Cc5ccc(cc5)CCNC(=O)[C@]5(C)CCCN5C2=O)C(=O)CCC(=O)N[C@@H](C)C(=O)N[C@H](CNC(=O)CCCCC[N+](C)(C)C)C(=O)N[C@@H](Cc2cccc(c2)CNC(=O)CO4)C(=O)N3)cc1	–	healthy fasted humans, plasma	oral, 35 mg single dose, geometric mean, together with: Labrasol 1800 mg	42.9
CC[C@H](C)[C@H](NC(=O)[C@H](CC(C)C)NC(=O)[C@H](Cc1c[nH]c2ccccc12)NC(=O)[C@H](CCC(N)=O)NC(=O)[C@@H](NC(=O)[C@H](Cc1ccccc1)NC(=O)[C@H](C)NC(=O)[C@H](CCCCNC(=O)COCCOCCNC(=O)COCCOCCNC(=O)CC[C@H](NC(=O)CCCCCCCCCCCCCCCCCCC(=O)O)C(=O)O)NC(=O)[C@H](CCC(N)=O)NC(=O)[C@H](C)NC(=O)[C@@H](NC(=O)[C@H](CCCCN)NC(=O)[C@H](CC(=O)O)NC(=O)[C@H](CC(C)C)NC(=O)C(C)(C)NC(=O)[C@@H](NC(=O)[C@H](CO)NC(=O)[C@H](Cc1ccc(O)cc1)NC(=O)[C@H](CC(=O)O)NC(=O)[C@H](CO)NC(=O)[C@@H](NC(=O)[C@H](Cc1ccccc1)NC(=O)[C@@H](NC(=O)CNC(=O)[C@H](CCC(=O)O)NC(=O)C(C)(C)NC(=O)[C@@H](N)Cc1ccc(O)cc1)[C@@H](C)O)[C@@H](C)O)[C@@H](C)CC)[C@@H](C)CC)C(C)C)C(=O)N[C@@H](C)C(=O)NCC(=O)NCC(=O)N1CCC[C@H]1C(=O)N[C@@H](CO)C(=O)N[C@@H](CO)C(=O)NCC(=O)N[C@@H](C)C(=O)N1CCC[C@H]1C(=O)N1CCC[C@H]1C(=O)N1CCC[C@H]1C(=O)N[C@@H](CO)C(N)=O	–	human, severe renal impairment, plasma	subcutaneous, 5 mg single dose, geometric mean	117
COc1ccsc1CNCC[C@@]1(c2ccccn2)CCOC2(CCCC2)C1	–	healthy human, normal renal function, plasma	intravenous, 1 mg single dose, arithmetic mean	2.44

Some of these lines once more:
Compound	assay	test system	conditions	half-life [h]
O=c1[nH]c(Cc2ccccn2)nc2c1cnn2C1CCOCC1	–	healthy male human, plasma	oral, 100 mg, geometric mean	2.68
